Measurements collected from several papers.
Parts stem from different laboratories: compare values within a part only.

Block 1
Target: Ras GTPase-activating protein-binding protein 1, C-terminal RGG region (G3BP1, Homo sapiens, UniProt Q13283)
UniProt Q13283, sequence (whole entry, looked up): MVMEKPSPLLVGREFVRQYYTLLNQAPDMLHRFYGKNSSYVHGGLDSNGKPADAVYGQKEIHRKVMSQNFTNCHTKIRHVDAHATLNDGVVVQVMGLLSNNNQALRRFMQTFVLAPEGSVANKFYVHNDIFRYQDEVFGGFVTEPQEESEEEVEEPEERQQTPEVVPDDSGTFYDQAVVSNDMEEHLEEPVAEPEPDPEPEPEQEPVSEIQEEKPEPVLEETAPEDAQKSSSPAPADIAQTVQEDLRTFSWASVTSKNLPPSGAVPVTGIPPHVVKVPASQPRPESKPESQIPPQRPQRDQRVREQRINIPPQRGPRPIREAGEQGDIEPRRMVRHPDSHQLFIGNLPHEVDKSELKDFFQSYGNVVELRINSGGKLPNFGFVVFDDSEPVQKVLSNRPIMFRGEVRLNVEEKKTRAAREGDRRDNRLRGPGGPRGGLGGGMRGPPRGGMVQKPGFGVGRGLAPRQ
Technique: RNA Bind-n-Seq
Form: RNA
Matrix: in vitro
Concentration: 1 µM
Notes: whole 134-nt RNA, ends assumed
Together with: 150 mM KCl
Baseline: input library
Reading: higher = stronger binding
Oligonucleotide | log2 enrichment
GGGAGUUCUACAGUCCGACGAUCAAGUCCUGUGCUACACAUCGUAUGUACCGAAUCGGGUUUGGGAAAAAAAGGGUGGGAAAGUAUUAUGUUACGCCGUUCGGAUCUGCACUUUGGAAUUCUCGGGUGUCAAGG | 1.15
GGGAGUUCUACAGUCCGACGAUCGUCCUGUGCUACACAUCGUAUGUACCGAAUCGGCCCCCGGGGCCCCCGGGCCCCCGGGAAAGUAUUAUGUUACGCCGUUCGGAUCUGCACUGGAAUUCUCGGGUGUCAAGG | -1.34
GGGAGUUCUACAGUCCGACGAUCAAGUCCUGUGCUACACAUCGUAUGUACCGAAUCGGGAAAAAGGGUUUGGGAAAGGGAAAGUAUUAUGUUACGCCGUUCGGAUCUGCACUUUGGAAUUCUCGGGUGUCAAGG | 1.08
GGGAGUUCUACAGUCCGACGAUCUGCCAUAAGCGGCACCGGCACUGCCCGGUUGUCGUGUCCGAGGCCACCAUCGUGGGCGUCCGCAAGACCGGGCAGAUCUGGCCCAACGAUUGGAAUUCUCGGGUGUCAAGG | -2.28
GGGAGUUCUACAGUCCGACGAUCCAAGUCCUGUGCUACACAUCGUAUGUACCGAAUCGGUUUUUUUGGAGGAAAAAGGAAAGUAUUAUGUUACGCCGUUCGGAUCUGCACUUCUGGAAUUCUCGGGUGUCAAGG | -1.63
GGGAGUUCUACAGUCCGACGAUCCCUGUGCUACACAUCGUAUGUACCGAAUCGGAAAAAAAGGGGAAAAAAAGGAAAAAAAGGGAAAGUAUUAUGUUACGCCGUUCGGAUCUGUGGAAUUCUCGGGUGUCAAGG | -1.55
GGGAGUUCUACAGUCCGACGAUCUGGCCCUGGUGGCAUGCGGGGAGGAAUAGGUGGCCUCAUGGAUCGUGGUGGUCCCGGUGGAAUGUUCAGAGGUGGCCGUGGUGGAGACAGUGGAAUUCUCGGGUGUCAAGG | 2.06
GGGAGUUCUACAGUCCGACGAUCUAACUUUAGAGGAGGAUCUGAUGGAUAUGGCGGUGGACGUGGAUUUGGGGAUGGCUAUAAUGGGUAUGGAGGAGGACCUGGAGGUGGCAAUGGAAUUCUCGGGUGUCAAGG | -1.65
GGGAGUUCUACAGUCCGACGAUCUGGGAGGUUGAUUUUGUUUAUUUUUUUAGCUCAUUUCCAGGGGUGGGAAUUUUUUUUUAAUAUGUGUCAUGAAUAAAGUUGUUUUUGAAAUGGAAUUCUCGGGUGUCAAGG | 3.42
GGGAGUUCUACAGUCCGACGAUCAAGUCCUGUGCUACACAUCGUAUGUACCGAAUCGGGGAGGGGAAAAAGGGGUGGGGAAAGUAUUAUGUUACGCCGUUCGGAUCUGCACUUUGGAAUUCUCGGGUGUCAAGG | 2.39

Block 2
Target: Sal-like protein 4, full length isoform B (SALL4, Homo sapiens, UniProt Q9UJQ4-2, residues 1-616)
Technique: universal PBM
Form: double-stranded DNA, one strand shown
Matrix: in vitro
Concentration: not given
Notes: 8-mer, flanks averaged, mean of replicates
Reading: higher = stronger binding
Target sequence (chain): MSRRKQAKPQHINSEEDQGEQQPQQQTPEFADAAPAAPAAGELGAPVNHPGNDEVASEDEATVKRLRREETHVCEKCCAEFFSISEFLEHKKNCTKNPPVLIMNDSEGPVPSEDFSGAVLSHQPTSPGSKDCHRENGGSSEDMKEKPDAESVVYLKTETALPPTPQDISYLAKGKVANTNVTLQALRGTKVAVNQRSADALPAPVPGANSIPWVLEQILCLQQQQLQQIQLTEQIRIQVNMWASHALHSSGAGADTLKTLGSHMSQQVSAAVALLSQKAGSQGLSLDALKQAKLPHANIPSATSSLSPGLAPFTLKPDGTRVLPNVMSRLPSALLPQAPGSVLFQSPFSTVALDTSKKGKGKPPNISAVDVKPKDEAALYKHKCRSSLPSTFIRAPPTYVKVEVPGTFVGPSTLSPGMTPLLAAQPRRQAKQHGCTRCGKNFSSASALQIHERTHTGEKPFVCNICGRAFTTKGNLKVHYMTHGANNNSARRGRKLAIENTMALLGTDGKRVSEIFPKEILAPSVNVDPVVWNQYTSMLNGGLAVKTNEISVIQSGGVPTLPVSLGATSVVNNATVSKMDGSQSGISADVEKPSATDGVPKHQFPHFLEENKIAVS
Oligonucleotide | E-score
AATAGTAA | 0.29
AAGTTGGC | 0.0241
ACGCCAAT | 0.109
CCAGTGAA | 0.0118
GGAATGCA | 0.056
ACAAGGCT | -0.0172
CTAAGATC | -0.0047
CTATAAGC | 0.157
CCCTCGTC | -0.29
GACATGGA | -0.0899
ACTTCCAG | -0.0331
TACATTGA | 0.243
CTTAGGCA | -0.16
AGTGCGCA | -0.143
TGTTGAAA | 0.211
ATATTCTC | 0.258
CCCGCCCA | -0.155
ATCGCATG | -0.0241
GGAACCGA | -0.24
GCAGTCAC | -0.12
ATAGGTTG | -0.104
ACGCTCGG | -0.167

Block 3
Target: RNA binding protein fox-1 homolog 2, RRM domain, GST-SBP tag (RBFOX2, Homo sapiens, UniProt O43251-10, residues 100-194)
Technique: RNA Bind-n-Seq
Form: RNA
Matrix: in vitro
Concentration: 365 nM
Notes: natural RNA segment, single round, ends assumed
Baseline: no-protein control
Reading: higher = stronger binding
Residues (chain): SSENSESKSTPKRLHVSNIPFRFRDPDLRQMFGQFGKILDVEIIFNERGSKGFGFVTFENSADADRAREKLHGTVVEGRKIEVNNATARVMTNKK
Oligonucleotide | RBNS enrichment (R)
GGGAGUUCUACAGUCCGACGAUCUAUUAAAAUAUAUUUUAUAUUUUAUUCAUUAAUAUAACAACAAUCCUAUCAGGAAAAGUUUCUAGAAAGCCAACGAGGGUCAGUAGUUUAGUGUCAUUCCUGGAAUUAACUGGAAUUCUCGGGUGCCAA | 0.91
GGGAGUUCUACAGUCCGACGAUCAAGUUGGAAGGAUCUGCUGAGGCCCAGUGCAUAUGCAAUGUAUAGUGUCUAUUAUCACAUUAAUCUCAAAGAGAUUCGAAUGACGGUAAGUGUUCUCAUGAAGCAGGAGGUGGAAUUCUCGGGUGCCAA | 0.351
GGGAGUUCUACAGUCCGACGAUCGCUGAGGAAUUCUUGUACGCAGUUUCUUUGGCUUCACGAAGCCGAUUAAAAGACCGUGUGAAAUGAAUCUCGCUCUGACCAUUUCCCUUUCAUUGCCGACACUGAGCUGCUGGAAUUCUCGGGUGCCAA | 0.369
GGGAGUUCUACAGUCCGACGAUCCUGAGAGGUUCUUGCCUGCAGGAGAAGCUGUCACAUCUCAAGCAUGUGAGGCACCGUUUUUCUCGUCGCUUGCCAAUCUGUUUUUUAAAGGAUCAGGCUCGUAGGGAGCAUGGAAUUCUCGGGUGCCAA | 2.04
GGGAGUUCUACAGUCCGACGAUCCUCUUAAUUGUCAAAAUUUAAUUCCACAUUUGUAAAUGUAAAAAUAAAGUCUAUUUUUUUUGGUCCAUUGGUGUUGUUAGCAUCUCCAGCUUUAUACCAAGACACCAUCCUGGAAUUCUCGGGUGCCAA | 0.934
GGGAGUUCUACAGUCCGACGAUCAAAUUCUUUUUGCACUUUGGCCUAUCCAGUAUCUUAUUUAUUCUCUAGAUAAGCUAGGAUAUUAAUCCAGAGUUACAUUACUGAGAAUUGAGUAGUAUAAGUAGGAUGUUUGGAAUUCUCGGGUGCCAA | 0.341
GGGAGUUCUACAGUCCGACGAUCGUUCCUUUUUUGUAUAUUACAACAUUUAUGUGAGGUAAUUAUUGCUCAACAGACAAUUAGAAAAAAGUCCACACUUGAAGCCUAAAUUUGUGCUUUUUAAGAAUAUUUUUUGGAAUUCUCGGGUGCCAA | 0.626
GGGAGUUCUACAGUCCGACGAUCGACAGAGAACAUGGUCUCCUGCAGGGCCCUGCCUCCCAAGCCCCGCCCUCAGAAAGCCAAGUACCUUUUCAGCUUUUUAACUGCCCCCAUCCCAACCCAGGGAGGCCUGUUGGAAUUCUCGGGUGCCAA | 0.303
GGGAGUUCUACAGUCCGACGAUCAUCAGGAACUGUAUUUUUUUUAAUGAUUUGCUUUUGAAACUUGAAGUCUUGAAAACAGUGUGAUGCAAUUACUGCUGUUCUAGCCCCCAAAGAGUUUUCUGUGCAAAAUCUGGAAUUCUCGGGUGCCAA | 0.693

Block 4
Target: Interferon regulatory factor 7, full length, phosphomimetic (IRF7, Homo sapiens, UniProt Q92985, residues 1-503, S471D/S472D/S475D/S476D/S477D/S483D/S484D/S487D)
Technique: protein-binding microarray
Form: double-stranded DNA, one strand shown
Matrix: in vitro
Concentration: 2200 nM top
Notes: 60-bp whole probe
Together with: salmon DNA 0.4 mg/ml
Baseline: random background probes
Reading: higher = stronger binding
Shared flanks, not repeated: GCCTAGCAC … GTCTTGATTCGCTTGACGCTGCTG
Target sequence (chain): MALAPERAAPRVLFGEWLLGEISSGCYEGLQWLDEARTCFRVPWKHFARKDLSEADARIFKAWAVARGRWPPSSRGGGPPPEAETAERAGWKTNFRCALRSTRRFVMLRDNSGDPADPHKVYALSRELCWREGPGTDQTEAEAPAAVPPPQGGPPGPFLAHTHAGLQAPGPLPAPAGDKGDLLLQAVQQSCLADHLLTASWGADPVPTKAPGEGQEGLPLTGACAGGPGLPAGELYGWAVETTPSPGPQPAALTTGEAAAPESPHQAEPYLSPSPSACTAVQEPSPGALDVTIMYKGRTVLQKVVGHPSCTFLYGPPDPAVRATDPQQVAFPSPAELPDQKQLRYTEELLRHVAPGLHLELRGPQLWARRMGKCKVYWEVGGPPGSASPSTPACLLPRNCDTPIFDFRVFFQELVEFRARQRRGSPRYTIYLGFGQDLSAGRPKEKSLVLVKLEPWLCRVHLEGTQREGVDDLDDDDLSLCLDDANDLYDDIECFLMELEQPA
Oligonucleotide | fitted relative affinity [z-score]
GACGGTTTCGCCTTTCGGGACGTGCTA | 6.62
GCCGGTTCCGGTTTCGGGACGTGCTAG | 6.17
TTAGAACTGAGTCTCGCTTAGTGCTAG | -0.222
TCATTTCTCAAATGTTTTACTGTGCTA | 1.71
ATTTAAAACAACTTTCAAAGGGTGCTA | -1.08
GACGGTTTCGACACTGGGTACGTGCTA | 2.84
TTAGGTATCGACTTTCGGTTGGTGCTA | 7.88
TACGATTTCAGTTTCGAGACGTGCTAG | 5.64
TTAGATATCACTATCGATTAGTGCTAG | 0.358
TTAGGTTTTCTACTGCTTTAGTGCTAG | 1.21
TTTGGTATCCTTATCCTTTAGTGCTAG | 1.52
GACGGACTGGGGATTGGGGACGTGCTA | -0.396
GACGGTTTCGGGATCGGGACGTGCTAG | 6.06
TGAGAACTGGGGTTTCGATTAGTGCTA | 2.05
TCAAAAATCTCAATGGGACTGTGCTAG | -0.72
GTGAATATATGTATATATGTGTGCTAG | 0.588
GACGCTTTCGGTCTCGGGACGTGCTAG | 7.47
TTAGATAGCAGTATCGATTAGTGCTAG | -0.268
TTAGGTTTCCTACTGCATTAGTGCTAG | 1.31
TTAGGTTTCGACTCTGGGTTAGTGCTA | 4.66
TTAGTACTGCTACTGCTTTAGTGCTAG | 0.523
GACGGACTGGGGTTTAGGGACGTGCTA | -0.923
GACGGTCTAGGACTGGGGACGTGCTAG | -0.726
ACAAGTTTCTCCTTTGTAAAGTGCTAG | 2.72
GCCGGACTGGGACTGGGGACGTGCTAG | -0.81

Some of these lines once more (block 3):
Oligonucleotide | RBNS enrichment (R)
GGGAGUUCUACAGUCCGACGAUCAAGUUGGAAGGAUCUGCUGAGGCCCAGUGCAUAUGCAAUGUAUAGUGUCUAUUAUCACAUUAAUCUCAAAGAGAUUCGAAUGACGGUAAGUGUUCUCAUGAAGCAGGAGGUGGAAUUCUCGGGUGCCAA | 0.351
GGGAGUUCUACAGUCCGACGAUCGUUCCUUUUUUGUAUAUUACAACAUUUAUGUGAGGUAAUUAUUGCUCAACAGACAAUUAGAAAAAAGUCCACACUUGAAGCCUAAAUUUGUGCUUUUUAAGAAUAUUUUUUGGAAUUCUCGGGUGCCAA | 0.626
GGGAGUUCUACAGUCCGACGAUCGCUGAGGAAUUCUUGUACGCAGUUUCUUUGGCUUCACGAAGCCGAUUAAAAGACCGUGUGAAAUGAAUCUCGCUCUGACCAUUUCCCUUUCAUUGCCGACACUGAGCUGCUGGAAUUCUCGGGUGCCAA | 0.369
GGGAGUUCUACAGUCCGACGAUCCUGAGAGGUUCUUGCCUGCAGGAGAAGCUGUCACAUCUCAAGCAUGUGAGGCACCGUUUUUCUCGUCGCUUGCCAAUCUGUUUUUUAAAGGAUCAGGCUCGUAGGGAGCAUGGAAUUCUCGGGUGCCAA | 2.04
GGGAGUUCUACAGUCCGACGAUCCUCUUAAUUGUCAAAAUUUAAUUCCACAUUUGUAAAUGUAAAAAUAAAGUCUAUUUUUUUUGGUCCAUUGGUGUUGUUAGCAUCUCCAGCUUUAUACCAAGACACCAUCCUGGAAUUCUCGGGUGCCAA | 0.934
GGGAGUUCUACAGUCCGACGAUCAUCAGGAACUGUAUUUUUUUUAAUGAUUUGCUUUUGAAACUUGAAGUCUUGAAAACAGUGUGAUGCAAUUACUGCUGUUCUAGCCCCCAAAGAGUUUUCUGUGCAAAAUCUGGAAUUCUCGGGUGCCAA | 0.693
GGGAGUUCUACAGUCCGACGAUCAAAUUCUUUUUGCACUUUGGCCUAUCCAGUAUCUUAUUUAUUCUCUAGAUAAGCUAGGAUAUUAAUCCAGAGUUACAUUACUGAGAAUUGAGUAGUAUAAGUAGGAUGUUUGGAAUUCUCGGGUGCCAA | 0.341
